Results from different studies.
Protocols differ between the studies behind these lines. Numbers after ± are the reported error.
Sctr: Sctr (Rattus norvegicus, UniProt P23811)
Sequence of UniProt P23811 (whole entry, looked up): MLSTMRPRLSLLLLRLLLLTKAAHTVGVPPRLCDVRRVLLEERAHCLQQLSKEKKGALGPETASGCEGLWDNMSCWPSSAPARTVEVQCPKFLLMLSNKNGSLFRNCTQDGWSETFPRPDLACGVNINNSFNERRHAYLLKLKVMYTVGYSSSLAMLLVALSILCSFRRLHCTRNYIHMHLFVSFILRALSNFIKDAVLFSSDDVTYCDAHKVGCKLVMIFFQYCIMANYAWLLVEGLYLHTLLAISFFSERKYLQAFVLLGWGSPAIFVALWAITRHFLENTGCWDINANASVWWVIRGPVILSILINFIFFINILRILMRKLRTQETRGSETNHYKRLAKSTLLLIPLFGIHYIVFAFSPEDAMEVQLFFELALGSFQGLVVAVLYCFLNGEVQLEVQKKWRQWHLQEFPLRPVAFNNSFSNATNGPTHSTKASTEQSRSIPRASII
PTGER2: Prostaglandin E2 receptor EP2 subtype (PTGER2, Homo sapiens, UniProt P43116)
Sequence of UniProt P25929 (whole entry, unmodified, looked up): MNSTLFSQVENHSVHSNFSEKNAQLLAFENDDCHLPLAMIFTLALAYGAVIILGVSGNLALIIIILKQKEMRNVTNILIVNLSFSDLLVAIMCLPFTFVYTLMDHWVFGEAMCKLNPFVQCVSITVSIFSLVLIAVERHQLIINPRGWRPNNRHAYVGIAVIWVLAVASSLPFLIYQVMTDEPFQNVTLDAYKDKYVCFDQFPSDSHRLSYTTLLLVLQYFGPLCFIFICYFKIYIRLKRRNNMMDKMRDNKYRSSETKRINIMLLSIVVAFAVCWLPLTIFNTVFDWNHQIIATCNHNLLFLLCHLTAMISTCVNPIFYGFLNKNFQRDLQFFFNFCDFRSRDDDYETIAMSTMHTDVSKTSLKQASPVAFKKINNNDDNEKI
Sequence of UniProt P43116 (whole entry, looked up): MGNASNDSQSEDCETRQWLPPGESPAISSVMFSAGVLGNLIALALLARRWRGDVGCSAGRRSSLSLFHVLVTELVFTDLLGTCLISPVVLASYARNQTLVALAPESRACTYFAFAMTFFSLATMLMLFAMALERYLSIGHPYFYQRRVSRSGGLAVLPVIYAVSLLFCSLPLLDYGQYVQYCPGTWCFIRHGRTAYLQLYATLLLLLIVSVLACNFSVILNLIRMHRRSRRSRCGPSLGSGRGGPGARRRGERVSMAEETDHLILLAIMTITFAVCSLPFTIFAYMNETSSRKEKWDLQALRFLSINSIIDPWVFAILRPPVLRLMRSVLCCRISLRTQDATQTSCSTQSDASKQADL
Sequence of UniProt P14902 (whole entry, looked up): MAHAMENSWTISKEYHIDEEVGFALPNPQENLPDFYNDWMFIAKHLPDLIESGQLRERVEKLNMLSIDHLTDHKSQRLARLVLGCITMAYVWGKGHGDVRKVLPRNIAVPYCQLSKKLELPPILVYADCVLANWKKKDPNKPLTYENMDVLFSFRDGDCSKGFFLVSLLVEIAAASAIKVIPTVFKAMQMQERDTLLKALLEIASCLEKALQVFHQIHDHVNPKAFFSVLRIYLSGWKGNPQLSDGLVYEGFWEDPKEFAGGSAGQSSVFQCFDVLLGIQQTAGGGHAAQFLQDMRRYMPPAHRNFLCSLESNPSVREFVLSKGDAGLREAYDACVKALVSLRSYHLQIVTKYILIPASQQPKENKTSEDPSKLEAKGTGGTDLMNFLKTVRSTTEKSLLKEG
Sequence of UniProt P16050 (whole entry, looked up): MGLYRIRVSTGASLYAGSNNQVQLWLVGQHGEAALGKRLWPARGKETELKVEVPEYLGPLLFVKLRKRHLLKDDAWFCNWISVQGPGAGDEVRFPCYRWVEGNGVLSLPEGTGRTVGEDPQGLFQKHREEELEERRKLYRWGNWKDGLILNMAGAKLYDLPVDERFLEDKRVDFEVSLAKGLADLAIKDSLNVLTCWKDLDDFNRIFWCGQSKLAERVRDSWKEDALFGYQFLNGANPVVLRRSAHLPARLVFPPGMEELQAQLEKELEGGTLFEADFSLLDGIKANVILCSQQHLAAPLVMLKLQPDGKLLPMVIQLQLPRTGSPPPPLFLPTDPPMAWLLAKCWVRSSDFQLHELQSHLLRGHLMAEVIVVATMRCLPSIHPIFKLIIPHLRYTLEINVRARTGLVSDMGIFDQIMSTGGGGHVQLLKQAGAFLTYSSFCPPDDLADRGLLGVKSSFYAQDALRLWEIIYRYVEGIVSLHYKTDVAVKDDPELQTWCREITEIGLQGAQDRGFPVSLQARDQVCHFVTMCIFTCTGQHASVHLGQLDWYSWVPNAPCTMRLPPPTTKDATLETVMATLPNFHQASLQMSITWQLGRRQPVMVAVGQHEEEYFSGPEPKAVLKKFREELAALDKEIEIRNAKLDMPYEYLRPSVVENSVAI
Sequence of UniProt O15552 (whole entry, looked up): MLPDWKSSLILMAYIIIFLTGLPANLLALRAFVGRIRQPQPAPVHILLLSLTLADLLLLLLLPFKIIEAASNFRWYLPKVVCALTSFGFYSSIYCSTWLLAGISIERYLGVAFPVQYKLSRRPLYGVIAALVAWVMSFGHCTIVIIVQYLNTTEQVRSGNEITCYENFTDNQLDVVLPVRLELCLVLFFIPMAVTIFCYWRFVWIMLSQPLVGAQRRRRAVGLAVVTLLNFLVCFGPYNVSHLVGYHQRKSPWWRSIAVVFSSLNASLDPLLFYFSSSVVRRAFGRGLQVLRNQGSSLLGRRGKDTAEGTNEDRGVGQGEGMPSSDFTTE
Sequence of UniProt Q8NER1 (whole entry, looked up): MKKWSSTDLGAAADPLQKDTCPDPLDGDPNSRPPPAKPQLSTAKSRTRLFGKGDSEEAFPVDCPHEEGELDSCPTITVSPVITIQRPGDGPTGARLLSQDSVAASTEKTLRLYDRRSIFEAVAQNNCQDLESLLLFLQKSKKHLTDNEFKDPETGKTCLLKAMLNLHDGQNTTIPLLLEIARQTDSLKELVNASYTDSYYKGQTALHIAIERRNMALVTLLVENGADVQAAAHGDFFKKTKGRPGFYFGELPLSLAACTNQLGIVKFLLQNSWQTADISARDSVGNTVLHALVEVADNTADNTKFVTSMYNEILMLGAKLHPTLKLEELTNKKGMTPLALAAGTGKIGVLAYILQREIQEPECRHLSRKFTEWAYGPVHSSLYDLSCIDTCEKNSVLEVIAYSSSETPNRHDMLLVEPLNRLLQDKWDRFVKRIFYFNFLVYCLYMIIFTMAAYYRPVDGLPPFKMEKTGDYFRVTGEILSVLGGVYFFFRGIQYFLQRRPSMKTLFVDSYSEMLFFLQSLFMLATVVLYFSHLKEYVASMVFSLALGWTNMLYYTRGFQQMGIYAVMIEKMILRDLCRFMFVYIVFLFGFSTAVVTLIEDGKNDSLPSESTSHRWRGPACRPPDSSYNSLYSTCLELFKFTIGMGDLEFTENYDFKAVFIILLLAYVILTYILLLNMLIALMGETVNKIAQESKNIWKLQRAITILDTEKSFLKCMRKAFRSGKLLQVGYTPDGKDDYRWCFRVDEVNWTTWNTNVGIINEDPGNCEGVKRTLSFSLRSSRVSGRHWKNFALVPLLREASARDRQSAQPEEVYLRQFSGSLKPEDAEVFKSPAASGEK
Sequence of UniProt P30550 (whole entry, looked up): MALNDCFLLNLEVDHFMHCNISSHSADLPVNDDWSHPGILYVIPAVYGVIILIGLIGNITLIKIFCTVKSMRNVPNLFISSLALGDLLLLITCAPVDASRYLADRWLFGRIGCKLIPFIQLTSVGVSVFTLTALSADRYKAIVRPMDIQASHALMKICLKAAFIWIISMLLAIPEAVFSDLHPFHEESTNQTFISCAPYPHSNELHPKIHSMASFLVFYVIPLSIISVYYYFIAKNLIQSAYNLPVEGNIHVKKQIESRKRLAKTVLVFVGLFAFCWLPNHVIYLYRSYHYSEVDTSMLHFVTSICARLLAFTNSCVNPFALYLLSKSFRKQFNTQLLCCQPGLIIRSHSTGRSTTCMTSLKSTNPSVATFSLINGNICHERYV

| SMILES | target | assay | test system | setting | how to read | quantity | value |
| --- | --- | --- | --- | --- | --- | --- | --- |
| CC(C)[C@H](C(=O)Nc1ncc(F)s1)c1ccc(Cl)cc1 | Free fatty acid receptor 2, with β-arrestin 2 (FFAR2, Homo sapiens, UniProt O15552) | β-arrestin 2 recruitment, agonist, NanoBiT |  | 25 min |  | EC50 | 4150 nM |
| CCC(=O)NCCCCNC(=O)NCc1ccc(CNC(=O)[C@@H](CCCNC(=N)N)NC(=O)C(c2ccccc2)c2ccccc2)cc1 | NPY1R (Homo sapiens, UniProt P25929, T280A) | antagonist | human cells |  |  | Kb | 94.3 nM |
| CSCC[C@H](NC(=O)[C@H](Cc1ccccc1)NC(=O)[C@H](Cc1c[nH]cn1)NC(=O)CNC(=O)[C@@H](NC(=O)[C@H](C)NC(=O)[C@H](Cc1c[nH]c2ccccc12)NC(=O)[C@H](CC(C)C)NC(=O)[C@@H]1CCC(=O)N1)[C@@H](C)O)C(N)=O | GRPR (Homo sapiens, UniProt P30550) | inositol phosphate generation, agonist | BALB/3T3 transfected with human GRPR | 45 min, 37 °C | baseline: 1 µM GRP | EC50 | 9.77 ± 0.29 nM |
| CCC(=O)NCCNC(=O)/N=C(/N)NCCC[C@@H](NC(=O)C(c1ccccc1)c1ccccc1)C(=O)NCc1ccc(O)cc1 | NPY1R (Homo sapiens, UniProt P25929, F286A) | antagonist | human cells |  |  | Kb | 2.56 nM |
| O=C1CCC(N2C(=O)c3cccc(NCCOCCOCCOCCOCCOCCOCCOCCNCCNc4nonc4/C(=N/O)Nc4ccc(F)c(Br)c4)c3C2=O)C(=O)N1 (centres unmarked) | IDO1 (Homo sapiens, UniProt P14902) | degrader, western blot | HeLa | 24 h, added: IFN-γ 5 ng/mL |  | DC50 | 2840 nM |
| CCOC(=O)CNC(=O)/N=C(/N)NCCC[C@@H](NC(=O)C(c1ccccc1)c1ccccc1)C(=O)NCc1ccc(O)cc1 | NPY1R (Homo sapiens, UniProt P25929, Q120N) | antagonist | human cells |  |  | Kb | 0.1 nM |
| CN1CCN(CC(=O)N2N=C3/C(=C/c4ccccc4)CCCC3C2c2ccccc2)CC1 (mixture of isomers) | ALOX15 (Homo sapiens, UniProt P16050) | enzyme activity, activator |  | pH 7.4, 1% DMSO, stirring, added: arachidonic acid 50 µM |  | AC50 | 9.7 µM |
| CC(C)C[C@H](NC(=O)N(CCCNC(=N)N)NC(=O)[C@H](Cc1ccc(O)cc1)NC(=O)CCCCCCC(=O)N[C@@H](Cc1ccc(O)cc1)C(=O)NN(CCCNC(=N)N)C(=O)N[C@@H](CC(C)C)C(=O)N[C@@H](CCCNC(=N)N)C(=O)N[C@@H](Cc1ccc(O)cc1)C(N)=O)C(=O)N[C@@H](CCCNC(=N)N)C(=O)N[C@@H](Cc1ccc(O)cc1)C(N)=O | NPY1R (Homo sapiens, UniProt P25929) | calcium signal, antagonist |  |  |  | Kb | 11.5 nM |
| CC(C)C[C@H](NC(=O)CNC(=O)[C@H](CCC(N)=O)NC(=O)[C@H](CC(C)C)NC(=O)[C@H](CC(C)C)NC(=O)[C@H](CCCNC(=N)N)NC(=O)[C@H](CCC(N)=O)NC(=O)[C@H](CC(C)C)NC(=O)[C@H](CCCNC(=N)N)NC(=O)[C@H](C)NC(=O)[C@H](C)NC(=O)[C@H](CC(=O)O)NC(=O)[C@H](CCC(N)=O)NC(=O)[C@H](CC(C)C)NC(=O)[C@H](CCCNC(=N)N)NC(=O)[C@H](CO)NC(=O)[C@H](CC(C)C)NC(=O)[C@H](CCC(=O)O)NC(=O)[C@H](CO)NC(=O)[C@@H](NC(=O)[C@H](Cc1ccccc1)NC(=O)[C@@H](NC(=O)CNC(=O)[C@H](CC(=O)O)NC(=O)[C@H](CO)NC(=O)[C@@H](N)Cc1c[nH]cn1)[C@@H](C)O)[C@@H](C)O)C(=O)N[C@H](C(N)=O)C(C)C | Sctr | cAMP production, agonist | CHO-SecR | 30 min, 37 °C, added: 1 mM IBMX |  | EC50 | 0.1 ± 0.04 nM |
| O=C(O)/C=C/c1cccc(NC(=O)c2cc(-c3ccc(F)cc3)ccc2F)c1 | PTGER2 | calcium signal, agonist, fluorescence |  |  |  | EC50 | 50.1 nM |
| CCc1nnc(NS(=O)(=O)c2ccc(NC(=S)NC(=O)/C=C/c3ccc(F)cc3)cc2)s1 | PTGER2 | cAMP, antagonist, TR-FRET |  |  |  | Kb | 7.72 nM |
| C[C@H](N)C(=O)N[C@@H](Cc1c[nH]c2ccccc12)C(=O)N[C@@H](CC(=O)O)C(=O)N[C@@H](C)C(=O)N[C@@H](C)C(=O)N[C@H](C)C(=O)O | Sctr | cAMP, agonist, TR-FRET |  |  |  | EC50 | 57000 nM |
| CC(C)C[C@H](NC(=O)CNC(=O)[C@H](CCC(N)=O)NC(=O)[C@H](CC(C)C)NC(=O)[C@H](CC(C)C)NC(=O)[C@H](CCCNC(=N)N)NC(=O)[C@H](CCC(N)=O)NC(=O)[C@H](CC(C)C)NC(=O)[C@H](CCCNC(=N)N)NC(=O)[C@H](C)NC(=O)[C@H](CO)NC(=O)[C@H](CC(=O)O)NC(=O)[C@H](CCC(N)=O)NC(=O)[C@H](CC(C)C)NC(=O)[C@H](CCCNC(=N)N)NC(=O)[C@H](CO)NC(=O)[C@H](CC(C)C)NC(=O)[C@H](CCC(=O)O)NC(=O)[C@H](CO)NC(=O)[C@@H](NC(=O)[C@H](Cc1ccccc1)NC(=O)[C@@H](NC(=O)CNC(=O)[C@H](CC(=O)O)NC(=O)[C@H](CO)NC(=O)[C@H](C)N)[C@@H](C)O)[C@@H](C)O)C(=O)N[C@H](C(N)=O)C(C)C | Sctr | cAMP production, agonist | CHO-SecR | 30 min, 37 °C, added: 1 mM IBMX |  | EC50 | 55.2 ± 8.7 nM |
| COc1cc(CNC(=O)CCCC/C=C/C(C)C)ccc1NS(C)(=O)=O | TRPV1 (Homo sapiens, UniProt Q8NER1) | calcium signal, agonist |  |  |  | EC50 | > 10000 nM |

Excerpt of the above:
| SMILES | target | assay | test system | setting | how to read | quantity | value |
| --- | --- | --- | --- | --- | --- | --- | --- |
| CCC(=O)NCCNC(=O)/N=C(/N)NCCC[C@@H](NC(=O)C(c1ccccc1)c1ccccc1)C(=O)NCc1ccc(O)cc1 | NPY1R (Homo sapiens, UniProt P25929, F286A) | antagonist | human cells |  |  | Kb | 2.56 nM |
